Results of several laboratories.
Each line is one published result; not all experiments were run side by side.

SMILES | test | system | setting | how to read | measurement | value
COc1ccc(C(=O)O)cc1OS(=O)(=O)O |  | human plasma | median |  | plasma concentration | 2260 nM
OCCOCc1ccc(-c2noc(-c3ccc(OCC[18F])c(C(F)(F)F)c3)n2)cc1 | ultrafiltration | Macaca mulatta, plasma | with: ponesimod 0.063 mg/kg |  | plasma free fraction | 0.61%
CC(C)C[C@H](NC(=O)[C@@H](Cc1c[nH]c2ccccc12)NC(=O)[C@H](Cc1ccc(O)cc1)NC(=O)[C@H](CO)NC(=O)[C@H](Cc1c[nH]c2ccccc12)NC(=O)[C@H](Cc1c[nH]cn1)NC(=O)[C@@H]1CCC(=O)N1)C(=O)N[C@@H](CCCNC(=N)N)C(=O)N1CCC[C@H]1C(=O)NCC(N)=O |  | Chinese boys, precocious puberty, plasma | intramuscular, 22.5 mg, 2160 h, month 3, mean |  | plasma concentration | 0.0422 ng/mL
CC(=O)N1CCN(c2ccc(OCC3COC(Cn4ccnc4)(c4ccc(Cl)cc4Cl)O3)cc2)CC1 (centres unmarked) |  | human plasma | 1 µM, 6 h, 37 °C |  | plasma stability | 105%
C[C@H](CCC(=O)NCC(=O)O)[C@H]1CC[C@H]2[C@@H]3CC[C@@H]4C[C@H](O)CC[C@]4(C)[C@H]3C[C@H](O)[C@]12C |  | men, T/C genotype, plasma | dose not given, geometric mean |  | plasma concentration | 133 ng/mL
O=C1CCc2ccc(OCCCCN3CCN(c4cccc(Cl)c4Cl)CC3)cc2N1 |  | patients, plasma, steady state | oral or long-acting depot injection, dose not given, CYP2D6 IM | relative to: CYP2D6 NM | plasma level increase | 61%
C[C@@H](O)[C@H](NC(=O)[C@H](Cc1ccc(O)cc1)NC(=O)[C@H](Cc1ccc(O)cc1)NC(=O)[C@H](CO)NC(=O)[C@H](CCCNC(=N)N)NC(=O)[C@H](Cc1c[nH]cn1)NC(=O)[C@@H](N)Cc1c[nH]c2ccccc12)C(=O)N[C@@H](Cc1c[nH]c2ccccc12)C(=O)N[C@@H](CC(N)=O)C(=O)NCCCC[C@H](NC(=O)[C@H](CC(N)=O)NC(=O)[C@H](Cc1c[nH]c2ccccc12)NC(=O)[C@@H](NC(=O)[C@H](Cc1ccc(O)cc1)NC(=O)[C@H](Cc1ccc(O)cc1)NC(=O)[C@H](CO)NC(=O)[C@H](CCCNC(=N)N)NC(=O)[C@H](Cc1c[nH]cn1)NC(=O)[C@@H](N)Cc1c[nH]c2ccccc12)[C@@H](C)O)C(=O)NCCCC[C@H](NC(=O)[C@H](CCCCNC(=O)[C@H](CC(N)=O)NC(=O)[C@H](Cc1c[nH]c2ccccc12)NC(=O)[C@@H](NC(=O)[C@H](Cc1ccc(O)cc1)NC(=O)[C@H](Cc1ccc(O)cc1)NC(=O)[C@H](CO)NC(=O)[C@H](CCCNC(=N)N)NC(=O)[C@H](Cc1c[nH]cn1)NC(=O)[C@@H](N)Cc1c[nH]c2ccccc12)[C@@H](C)O)NC(=O)[C@H](CC(N)=O)NC(=O)[C@H](Cc1c[nH]c2ccccc12)NC(=O)[C@@H](NC(=O)[C@H](Cc1ccc(O)cc1)NC(=O)[C@H](Cc1ccc(O)cc1)NC(=O)[C@H](CO)NC(=O)[C@H](CCCNC(=N)N)NC(=O)[C@H](Cc1c[nH]cn1)NC(=O)[C@@H](N)Cc1c[nH]c2ccccc12)[C@@H](C)O)C(=O)N[C@@H](CCCCN)C(=O)N[C@@H](CCCCN)C(=O)N[C@@H](CCCCN)C(N)=O |  | human serum albumin |  |  | plasma protein binding | 95%
CCNCCCn1c2c(c3cc(OC)c(OC)cc3c1=O)C(=O)c1cc3c(nc1-2)OCO3 |  | human plasma | 1 µM, 6 h, 37 °C |  | plasma stability | 86.2%
Cl.N=C(CC(O)c1cc2c(F)cc(F)cc2c2cc(C(F)(F)F)ccc12)Nc1ccc(Br)cc1 (centres unmarked) |  | human plasma | 2.5 and 50 ng/mL |  | plasma half-life | 1980 to 2280 min
C[C@@H](O)[C@H](NC(=O)[C@H](Cc1ccc(O)cc1)NC(=O)[C@H](Cc1ccc(O)cc1)NC(=O)[C@H](CO)NC(=O)[C@H](CCCNC(=N)N)NC(=O)[C@H](Cc1c[nH]cn1)NC(=O)[C@@H](N)Cc1c[nH]c2ccccc12)C(=O)N[C@@H](Cc1c[nH]c2ccccc12)C(=O)N[C@@H](CC(N)=O)C(N)=O |  | human serum albumin |  |  | plasma protein binding | 84%
COc1ccccc1OCC(O)CN1CCN(CC(=O)Nc2c(C)cccc2C)CC1 (centres unmarked) |  | human, plasma | oral, 12 mg/kg/day every 12 h, 3 h post-dose |  | plasma concentration | 269 ng/mL
O=Cc1ccc(O)c(O)c1 |  | human plasma | mean, both sexes |  | plasma concentration | 18.6 nM
Cc1cc(Nc2ccc(S(F)(F)(F)(F)F)cc2)n2ccnc2n1 |  | diluted mouse plasma | 2 µM, 6 h |  | plasma stability | 100 % remaining
C[C@H](CCC(=O)NCC(=O)O)[C@H]1CC[C@H]2[C@@H]3[C@H](O)C[C@@H]4C[C@H](O)CC[C@]4(C)[C@H]3CC[C@]12C |  | women, T/T genotype, plasma | dose not given, geometric mean |  | plasma concentration | 401 ng/mL
O=C(/C=C/c1ccc(O)c(O)c1)O[C@@H]1C[C@](O)(C(=O)O)C[C@@H](O)[C@H]1O |  | human plasma | mean, both sexes |  | plasma concentration | 151 nM
O=C(CCCCCCC(=O)Nc1ccccc1)NO |  | rat plasma |  |  | plasma stability | stable
O=C(O)c1cc(O)ccc1O |  | human plasma | mean, both sexes |  | plasma concentration | 5080 nM
COc1cc2c3c(n(CCCNC(C)C)c(=O)c2cc1OC)-c1nc2c(cc1C3=O)OCO2 |  | human plasma | 1 µM, 6 h, 37 °C |  | plasma stability | 95%
O=C(O)/C=C/c1ccc(O)c(O[C@@H]2O[C@H](C(=O)O)[C@@H](O)[C@H](O)[C@H]2O)c1 |  | human plasma | mean |  | plasma concentration | 18.7 nM
C=CC(=O)N1CCC([C@@H]2CCNc3c(C(N)=O)c(-c4ccc(Oc5ccccc5)cc4)nn32)CC1 |  | human K2EDTA plasma | laboratory lighting |  | plasma stability at room temperature | 8.5 h
O=c1oc2cc(O)ccc2c2ccccc12 |  | human plasma | median |  | plasma concentration | 293 nM
CC#Cc1cncc(-c2ccc3c(c2)[C@@]2(N=C(C)C(N)=N2)[C@]2(CC[C@H](OC)CC2)C3)c1 |  | human, dog, guinea pig, rat, mouse plasma |  |  | plasma stability | stable
O=C(O)CNC(=O)c1ccccc1O |  | human plasma | median |  | plasma concentration | 284 nM
O=c1c2cc(Cl)ncc2[nH]c(=S)n1Cc1cccnc1 |  | mouse plasma | concentration not given |  | plasma stability | 95 to 98.7%
COc1ccc(C2CC(=O)c3c(O)cc(OS(=O)(=O)O)cc3O2)cc1O (centres unmarked) |  | human plasma | mean |  | plasma concentration | 7680 nM
COc1cc2c3c(n(CCCNCCO)c(=O)c2cc1OC)-c1nc2c(cc1C3=O)OCO2 |  | mouse plasma | 1 µM, 6 h, 37 °C |  | plasma stability | 97.6%
